Experimental data of several laboratories.
Each numbered part is a random draw from the data of one study; scales do not carry over between parts.

Block 1
Target: Fragile X messenger ribonucleoprotein 1, C-terminal low-complexity region (Fmr1, Mus musculus, UniProt P35922)
Method: RNA Bind-n-Seq
Molecule type: RNA
Sample: in vitro
Tested at: 200 nM
Notes: whole 134-nt RNA, ends assumed
Added: 150 mM KCl
Relative to: input library
Direction: higher = stronger binding
Endpoint: log2 enrichment
Constant ends, left off below: GGGAGUUCUACAGUCCGACGAUC … UGGAAUUCUCGGGUGUCAAGG
Oligonucleotide = UCCUCAAGUCCUGUGCUACACAUCGUAUGUACCGAAUCGGGCGGGCGGCGGGAAAGUAUUAUGUUACGCCGUUCGGAUCUGCACUUCCAG; result = 0.338
Oligonucleotide = CACAGACAACACGCACCCACACAGACACAGAGUGAAGGGGUUGGGAUGGGGACAGGGUGCACAGCAGGGCGGGGUAGGACCCCAGCCCCU; result = 1.26
Oligonucleotide = CAAGUCCUGUGCUACACAUCGUAUGUACCGAAUCGGAAAGGGAAAGGGAAAGGGGAAAGUAUUAUGUUACGCCGUUCGGAUCUGCACUUC; result = -0.0484
Oligonucleotide = CCUCAAGUCCUGUGCUACACAUCGUAUGUACCGAAUCGGUUGGGUUGGGUUGGAAAGUAUUAUGUUACGCCGUUCGGAUCUGCACUUCCA; result = 0.00911
Oligonucleotide = GCAGGAAGUAAAAACAAAUGGUAAUGCUUCGGAUAGUGGCAGGGGUGGGGGUUGCUAAGGAAAGGGUGGGAUGGGAGUGGGUAAAGAGUU; result = 0.192

Block 2
Target: Sal-like protein 4, full length isoform A (SALL4, Homo sapiens, UniProt Q9UJQ4, residues 1-1053)
UniProt Q9UJQ4, sequence (whole entry, looked up): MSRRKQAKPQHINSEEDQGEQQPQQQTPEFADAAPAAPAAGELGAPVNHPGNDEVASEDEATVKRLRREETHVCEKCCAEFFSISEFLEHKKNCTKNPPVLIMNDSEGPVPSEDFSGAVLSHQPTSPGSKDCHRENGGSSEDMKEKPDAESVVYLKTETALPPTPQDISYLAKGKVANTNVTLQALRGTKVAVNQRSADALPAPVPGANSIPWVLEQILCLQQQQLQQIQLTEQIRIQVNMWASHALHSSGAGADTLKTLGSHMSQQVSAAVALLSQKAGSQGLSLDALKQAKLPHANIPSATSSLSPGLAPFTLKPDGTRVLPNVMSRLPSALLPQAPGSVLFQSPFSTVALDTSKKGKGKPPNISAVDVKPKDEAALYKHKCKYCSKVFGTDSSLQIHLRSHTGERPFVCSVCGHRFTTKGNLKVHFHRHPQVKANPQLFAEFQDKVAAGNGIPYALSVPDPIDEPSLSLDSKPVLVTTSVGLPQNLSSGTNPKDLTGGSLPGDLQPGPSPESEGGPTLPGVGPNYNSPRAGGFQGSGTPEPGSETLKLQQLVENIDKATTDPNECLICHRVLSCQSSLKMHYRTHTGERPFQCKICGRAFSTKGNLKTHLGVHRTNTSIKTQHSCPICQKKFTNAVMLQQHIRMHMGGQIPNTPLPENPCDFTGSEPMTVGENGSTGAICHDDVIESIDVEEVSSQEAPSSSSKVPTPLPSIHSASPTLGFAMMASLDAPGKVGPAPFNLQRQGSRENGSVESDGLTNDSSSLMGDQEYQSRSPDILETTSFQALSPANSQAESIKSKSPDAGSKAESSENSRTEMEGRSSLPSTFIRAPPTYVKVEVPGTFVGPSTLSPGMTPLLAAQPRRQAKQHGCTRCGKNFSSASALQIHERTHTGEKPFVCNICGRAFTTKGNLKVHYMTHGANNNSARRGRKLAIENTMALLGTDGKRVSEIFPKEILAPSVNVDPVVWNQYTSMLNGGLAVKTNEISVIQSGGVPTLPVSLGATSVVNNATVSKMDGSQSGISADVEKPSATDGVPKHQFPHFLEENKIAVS
Method: universal PBM
Molecule type: double-stranded DNA, one strand shown
Sample: in vitro
Tested at: 600 nM
Notes: 8-mer, flanks averaged, mean of replicates
Direction: higher = stronger binding
Endpoint: E-score
Oligonucleotide = CAGGAGGA; result = -0.22
Oligonucleotide = CAAAGACC; result = 0.0769
Oligonucleotide = ATCTTCGG; result = 0.145
Oligonucleotide = AGAAGCAC; result = -0.0695
Oligonucleotide = GACAACGC; result = -0.18
Oligonucleotide = CAGACGTC; result = -0.187
Oligonucleotide = ACACCTAA; result = 0.121
Oligonucleotide = AAGCTCTA; result = 0.109
Oligonucleotide = GCATACGC; result = -0.00553

Block 3
Target: Interferon regulatory factor 7, full length, phosphomimetic (IRF7, Homo sapiens, UniProt Q92985, residues 1-503, S471D/S472D/S475D/S476D/S477D/S483D/S484D/S487D)
Method: protein-binding microarray
Molecule type: double-stranded DNA, one strand shown
Sample: in vitro
Tested at: 2200 nM top
Notes: 60-bp whole probe
Added: salmon DNA 0.4 mg/ml
Relative to: random background probes
Direction: higher = stronger binding
Endpoint: fitted relative affinity
Constant ends, left off below: GCCTAGCAC … GTGCTAGGTCTTGATTCGCTTGACGCTGCTG
Target sequence (chain): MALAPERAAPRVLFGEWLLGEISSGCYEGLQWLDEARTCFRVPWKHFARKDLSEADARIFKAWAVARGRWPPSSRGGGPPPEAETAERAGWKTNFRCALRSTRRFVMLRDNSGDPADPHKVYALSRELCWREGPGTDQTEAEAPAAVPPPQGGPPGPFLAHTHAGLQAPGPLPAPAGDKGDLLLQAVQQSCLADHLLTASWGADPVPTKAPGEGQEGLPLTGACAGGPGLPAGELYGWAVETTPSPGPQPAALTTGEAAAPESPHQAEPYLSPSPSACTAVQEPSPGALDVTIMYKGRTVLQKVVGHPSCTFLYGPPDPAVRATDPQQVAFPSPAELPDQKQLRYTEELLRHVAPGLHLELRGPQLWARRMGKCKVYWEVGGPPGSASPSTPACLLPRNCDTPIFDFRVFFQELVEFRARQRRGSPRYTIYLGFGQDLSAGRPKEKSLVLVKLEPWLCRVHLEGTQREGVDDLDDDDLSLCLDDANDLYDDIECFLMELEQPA
Oligonucleotide = GACGGTCTCAGTCTCGAGAC; result = 0.0321 z-score
Oligonucleotide = TTAGGACTGCTTATCCGTTA; result = 0.346 z-score
Oligonucleotide = TTAGCTTTCGGTTTCGGTTA; result = 17.7 z-score
Oligonucleotide = CTCTGCTTGGGTCTGGGTAT; result = -0.114 z-score
Oligonucleotide = TTCGGACTGCTTTTCCTTTA; result = 1.91 z-score
Oligonucleotide = TTAGGTATCCTTATCCTTTC; result = 1.54 z-score
Oligonucleotide = CTTGGCTTCTCCCACAGGTG; result = -0.226 z-score

Further values, each from its own experiment
Substance = PhoQ, residues 284 288 289 292 302 303 NLALSC; target = PhoP, residues 12 14 15 18 19 QYFSL (Escherichia coli, UniProt P23836); test = Sort-seq, refers to: YFP reporter; test system = E. coli; setting = PhoQ-PhoP variant library, added: 10 µM Mg2+; scale = relative to: high Mg2+ state, higher = stronger signaling; endpoint = fold induction; result = 1.02

For quick reference, copied from above (block 2):
Oligonucleotide = CAAAGACC; result = 0.0769
Oligonucleotide = ATCTTCGG; result = 0.145
Oligonucleotide = AGAAGCAC; result = -0.0695
